# Published values pooled from the literature.
# Numbered parts are unrelated; each lists some results of a single study.

# Block 1
# Target: Ras GTPase-activating protein-binding protein 1, full length (G3BP1, Homo sapiens, UniProt Q13283)
# Sequence of UniProt Q13283 (whole entry, looked up): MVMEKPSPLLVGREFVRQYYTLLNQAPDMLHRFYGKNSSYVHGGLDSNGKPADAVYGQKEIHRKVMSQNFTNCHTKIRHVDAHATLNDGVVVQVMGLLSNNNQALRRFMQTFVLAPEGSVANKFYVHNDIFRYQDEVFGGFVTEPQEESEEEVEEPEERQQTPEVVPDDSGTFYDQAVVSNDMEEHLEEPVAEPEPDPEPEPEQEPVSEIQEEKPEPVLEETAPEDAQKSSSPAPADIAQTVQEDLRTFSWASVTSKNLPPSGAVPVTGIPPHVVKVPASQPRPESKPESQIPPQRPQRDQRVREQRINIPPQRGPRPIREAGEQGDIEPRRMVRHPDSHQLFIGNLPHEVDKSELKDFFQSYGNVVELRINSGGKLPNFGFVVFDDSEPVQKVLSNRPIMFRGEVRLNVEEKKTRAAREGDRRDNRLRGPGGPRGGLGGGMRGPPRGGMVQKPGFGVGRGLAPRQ
# Method: RNA Bind-n-Seq
# Molecule type: RNA
# Medium: in vitro
# Concentration: 200 nM
# Setting: whole 134-nt RNA, ends assumed
# Added: 150 mM LiCl
# Relative to: input library
# Direction: higher = stronger binding
# All molecules: 7-deaza-guanosine replaces G
# Shared flanks, not repeated: GGGAGUUCUACAGUCCGACGAUC … UGGAAUUCUCGGGUGUCAAGG
Strand,log2 enrichment
GUCCUGUGCUACACAUCGUAUGUACCGAAUCAAAUUUUUAAACCCAAACCCCCCCAAAAAAGUAUUAUGUUACGCCGUUCGGAUCUGCAC,0.726
CACAGACAACACGCACCCACACAGACACAGAGGGAAGGGGUUGGGAUGGGGACAGGGUGCACAGCACGGCGGGGUAGGACCCCAGCCCCU,-0.0316
CAAGUCCUGUGCUACACAUCGUAUGUACCGAAUCGGGUUUUGGGUUUUGGUUUUGGAAAGUAUUAUGUUACGCCGUUCGGAUCUGCACUU,-1.03
UCCUGUGCUACACAUCGUAUGUACCGAAUCGGAAAAAAAGGAAAAAAAGGUUUUUUUGGAAAGUAUUAUGUUACGCCGUUCGGAUCUGCA,-1.89
UCAAGUCCUGUGCUACACAUCGUAUGUACCGAAUCGGAAAGGAAAGGGAAAGGGGAAAGUAUUAUGUUACGCCGUUCGGAUCUGCACUUC,-0.545
UAACUUUAGAGGAGGAUCUGAUGGAUAUGGCAGUGGACGUGGAUCUGGGGAUGGCUAUAAUGGGUAUGGAGGAGGACCUGGAGGUGGCAA,-0.539
AGUCCUGUGCUACACAUCGUAUGUACCGAAUCGGGGAAAAAGGAAAAAGGGAAAAAGGAAAGUAUUAUGUUACGCCGUUCGGAUCUGCAC,-0.439
ACCAUGCAGGUGGGCAUCUUUGGGAAGUGGGGCAAGGGGGGGAUAGGGAGGGGGGUAACACUUUGGGAACAGGUGGUCCCAGGACGUUUC,0.21

# Block 2
# Target: Prothrombin, mature alpha-thrombin (F2, Homo sapiens, UniProt P00734)
# Method: aptamer microarray, sandwich
# Molecule type: DNA with 2'F-ANA
# Medium: in vitro
# Concentration: 200 nM
# Setting: whole 15-mer aptamer, many near background
# Added: Cy3 exosite-II aptamer, 400 nM
# Direction: higher = stronger binding
# Strand: GGTTGGTGTGGTTGG
Modification,mean fluorescence intensity [a.u.]
2'F-ANA at 1 2 7 12 13 14 15,64.7
2'F-ANA at 3 4 5 6 9 10 15,52.5
2'F-ANA at 1 2 3 5 6 7 9 11 13,77.5
2'F-ANA at 1 2 7 8 10 12 15,69.1
2'F-ANA at 3 6 7 8 9 10 12 15,575
2'F-ANA at 3 4 7 8 10 13 14,219
2'F-ANA at 1 2 3 5 6 8 9 10 11 13,88.6
2'F-ANA at 5 6 8 10 11 13 14 15,45.8
2'F-ANA at 2 3 4 6 10 11 13 15,168
2'F-ANA at 1 5 8 12 13 14,47.7
2'F-ANA at 1 5 9 10 12 14 15,50.9
2'F-ANA at 4 5 9 10 12 15,54.8
2'F-ANA at 2 3 4 5 6 9 10 14,47.4
2'F-ANA at 2 3 5 6 7 8 9 11 12 13 14,52.6
2'F-ANA at 2 3 4 6 9 10 12,255
2'F-ANA at 1 3 6 7 8 9 10 14,61.4
2'F-ANA at 2 5 7 8 12 13 14,47.2
2'F-ANA at 2 3 4 5 6 8 9 11 13 15,61.5
2'F-ANA at 2 6 8 9 10 11 13 14 15,65.7
2'F-ANA at 2 4 6 7 8 9 12 13 15,334
2'F-ANA at 1 2 3 5 6 7 10 11 12 14 15,51.1
2'F-ANA at 2 5 9 10 12 13 15,53.2

# Block 3
# Target: Histone acetyltransferase KAT6A, winged helix 1, GST fusion (KAT6A, Homo sapiens, UniProt Q92794, residues 1-85)
# Method: protein binding microarray
# Molecule type: double-stranded DNA, one strand shown
# Medium: in vitro
# Concentration: not given
# Setting: 8-mer, flanks averaged, mean of 2 arrays, mostly near background
# Relative to: not given
# Direction: higher = stronger binding
# Target sequence (chain): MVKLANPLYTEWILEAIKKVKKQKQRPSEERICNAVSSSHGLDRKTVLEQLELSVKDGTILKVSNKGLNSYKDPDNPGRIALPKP
Strand,E-score
AGATTGGA,-0.353
GTAACGCA,0.149
ATCAGCTC,-0.162
GAACTTAC,0.0542
GATTCGCC,-0.0272
TATACAAA,-0.0703
CTATGGAA,-0.145
TATAACGA,-0.0534
AAGGGCCG,0.168
AATCTGAT,-0.108
GTGCAGGA,-0.161
GAACATCC,-0.0801
AACCTCCG,0.0367
GACTCGAC,-0.0926
ACTACACC,-0.00877
AAAGGAAC,-0.186
TATTTAAA,-0.0605
CGCGTTCA,0.317
GCCGCATA,0.311
GTCCGCCA,0.139
TCTACTAA,-0.0188
GACGAACA,0.103
AGCGGTAG,0.129
ATTTCATC,-0.237
GCATAGAA,-0.124

# Block 4
# Target: Sal-like protein 4, full length isoform B (SALL4, Homo sapiens, UniProt Q9UJQ4-2, residues 1-616)
# Method: universal PBM
# Molecule type: double-stranded DNA, one strand shown
# Medium: in vitro
# Concentration: not given
# Setting: 8-mer, flanks averaged, mean of replicates
# Direction: higher = stronger binding
Strand,E-score
ACATAAAA,0.297
ACAGAACC,0.0264
AAATTCTG,0.181
AAGATCAA,0.102
CTGAAAAC,0.175
ACAAGTAT,0.244
CCACATAA,0.192
GCGGCCCC,-0.342
AATCTGCC,-0.0904
TCAACTAA,0.176
AACCTAGA,0.0228
CTGGGTGC,-0.4
TCTCCTCA,0.0623
GACCCATA,0.144
AGCATTTG,0.0728
AAATGGAC,0.167
AGACGGCA,-0.157
CCGTCTTC,-0.226
TAGCAGAA,-0.0001
GAGCTATA,0.182
AACTCCCG,-0.0924
TGTCGCAA,0.14
GGGCTGTA,-0.203
GACTTTCC,-0.0924
AACACTAT,0.338

# A few entries again (block 2):
Modification,mean fluorescence intensity [a.u.]
2'F-ANA at 1 5 8 12 13 14,47.7
2'F-ANA at 2 3 5 6 7 8 9 11 12 13 14,52.6
2'F-ANA at 1 2 7 12 13 14 15,64.7
2'F-ANA at 2 6 8 9 10 11 13 14 15,65.7
2'F-ANA at 1 2 3 5 6 8 9 10 11 13,88.6
2'F-ANA at 2 5 9 10 12 13 15,53.2
2'F-ANA at 2 3 4 5 6 8 9 11 13 15,61.5
2'F-ANA at 1 2 3 5 6 7 10 11 12 14 15,51.1
2'F-ANA at 1 5 9 10 12 14 15,50.9
2'F-ANA at 5 6 8 10 11 13 14 15,45.8
2'F-ANA at 2 3 4 6 10 11 13 15,168
